Results from different studies.
Compare with care: the assays were run in different laboratories. Values joined by “and” are separate records of one study, mostly repeats; a detail may differ.
EPHA5: Ephrin type-A receptor 5 (EPHA5, Homo sapiens, UniProt P54756)
Chain of UniProt P54756 (whole entry, unmodified, looked up): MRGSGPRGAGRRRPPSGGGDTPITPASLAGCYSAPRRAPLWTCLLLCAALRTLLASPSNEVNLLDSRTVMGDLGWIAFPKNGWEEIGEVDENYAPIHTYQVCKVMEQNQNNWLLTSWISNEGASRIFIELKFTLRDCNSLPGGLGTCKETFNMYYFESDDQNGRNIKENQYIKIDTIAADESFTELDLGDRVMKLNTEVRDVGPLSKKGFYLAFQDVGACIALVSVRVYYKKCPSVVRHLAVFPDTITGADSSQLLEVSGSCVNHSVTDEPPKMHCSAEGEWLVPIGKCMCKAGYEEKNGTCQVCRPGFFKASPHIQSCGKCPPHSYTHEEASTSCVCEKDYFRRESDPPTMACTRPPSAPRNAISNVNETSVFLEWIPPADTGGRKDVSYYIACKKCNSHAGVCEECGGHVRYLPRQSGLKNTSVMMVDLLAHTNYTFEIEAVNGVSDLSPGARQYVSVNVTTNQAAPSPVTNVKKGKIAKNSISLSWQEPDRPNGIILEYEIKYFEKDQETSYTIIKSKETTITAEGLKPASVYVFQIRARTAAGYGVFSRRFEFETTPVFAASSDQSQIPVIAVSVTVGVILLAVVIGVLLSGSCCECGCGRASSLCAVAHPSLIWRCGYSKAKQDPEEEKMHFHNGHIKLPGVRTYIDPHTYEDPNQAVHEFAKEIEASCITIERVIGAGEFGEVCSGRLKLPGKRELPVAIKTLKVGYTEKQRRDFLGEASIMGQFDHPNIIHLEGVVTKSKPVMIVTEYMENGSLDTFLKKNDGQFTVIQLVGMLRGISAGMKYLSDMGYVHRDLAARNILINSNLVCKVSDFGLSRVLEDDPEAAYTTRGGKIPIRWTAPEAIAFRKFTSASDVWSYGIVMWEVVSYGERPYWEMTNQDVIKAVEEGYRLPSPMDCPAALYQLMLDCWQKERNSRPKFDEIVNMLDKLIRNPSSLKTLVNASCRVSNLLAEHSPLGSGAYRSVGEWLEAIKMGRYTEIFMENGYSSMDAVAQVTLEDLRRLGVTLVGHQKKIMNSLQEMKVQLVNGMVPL
TDP1: Tyrosyl-DNA phosphodiesterase 1 (TDP1, Homo sapiens, UniProt Q9NUW8)
Chain of UniProt Q9NUW8 (whole entry, looked up): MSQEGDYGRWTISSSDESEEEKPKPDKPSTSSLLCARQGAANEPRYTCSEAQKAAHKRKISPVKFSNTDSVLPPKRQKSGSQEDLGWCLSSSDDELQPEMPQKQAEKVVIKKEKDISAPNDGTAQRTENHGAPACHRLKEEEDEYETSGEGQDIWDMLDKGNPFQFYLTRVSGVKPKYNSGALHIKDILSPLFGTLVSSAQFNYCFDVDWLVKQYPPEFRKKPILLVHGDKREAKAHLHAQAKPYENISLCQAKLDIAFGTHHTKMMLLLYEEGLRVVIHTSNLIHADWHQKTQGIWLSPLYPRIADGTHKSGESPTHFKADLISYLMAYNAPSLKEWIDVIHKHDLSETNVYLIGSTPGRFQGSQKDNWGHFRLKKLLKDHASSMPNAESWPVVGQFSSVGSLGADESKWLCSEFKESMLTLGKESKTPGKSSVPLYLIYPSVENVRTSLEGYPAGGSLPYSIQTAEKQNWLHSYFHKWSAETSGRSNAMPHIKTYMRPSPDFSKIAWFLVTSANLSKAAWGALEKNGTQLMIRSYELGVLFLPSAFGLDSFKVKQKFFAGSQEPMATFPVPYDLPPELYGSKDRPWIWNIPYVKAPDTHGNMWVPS

`O=C(Cc1ccc(OCc2ccccc2)cc1)NC1(C(=O)O)CCN(C(=O)c2ccc(-c3cccc(Cl)c3)cc2)CC1` — result for “activity vs control”: 109% (EPHA5; enzyme activity, inhibitor; 10 µM).
`COc1cc(Nc2nc(C)cc(-c3cnn4nc(OC)ccc34)n2)cc(C(F)(F)F)c1` has a remaining activity of 96% (EPHA5; inhibitor; 1 µM; reference: control).
For `NC(=O)[C@@H](O)C[C@H]1CCc2sc3ncnc(O[C@H]4CC[C@H](N5CCOCC5)CC4)c3c21`, the inhibition was 16% (EPHA5; enzyme activity, inhibitor; 10 µM).
`C=CC(=O)N1CCc2ccc(-n3c(=O)ccc4cnc5ccc(-c6cnn(C)c6)cc5c43)cc21` has a remaining binding of 100% (EPHA5; KINOMEscan; 1 µM; reference: DMSO control).
`COc1c(OCCCN2CCOCC2)ccc2c1N=C(NC(=O)c1cnc(N)nc1)N1CCN=C21` has a remaining activity of 48% (EPHA5; kinase activity, inhibitor; 1 µM; reference: untreated control).
For `COCC12C(=O)NC3C4(C(OC)CC1O)C1CC5(O)C(OC)C(O)C(OC(C)=O)(C1C5OC(=O)c1ccccc1)C3(O)C(OC)C24` (stereo not drawn), the remaining activity was 89% and 101% (EPHA5; kinase activity, inhibitor, ProQinase kinase profiling; 25 µM; reference: control).
With `Cc1cccc(O[C@H]2CCC[C@@H](C(C)CNCc3ccncc3)C2)c1` (relative stereo) the inhibition was -7% (EPHA5; kinase activity, kinome panel screening; 10 µM).
With `COC(=O)c1c(C)oc2cc(Br)c(O)c(C=NOCc3ccc(-c4nc5cc(-c6ccccc6)ccn5c4Nc4ccc(C(=O)O)cc4)cc3)c12` (mixture of isomers) the inhibition was 66.9% (TDP1; enzyme activity, inhibitor; 100 µM, unpurified compound).
For `CNC1C[S+]2CC[S+]3CC[S+](C1)[Ru-4]321([N]=C=S)[n]2c3ccc(OC)cc3c3c4c(c5cc(F)c[n+]1c5c32)C(=O)NC4=O` (stereo not drawn), the remaining binding was 86% (EPHA5; KinomeScan; 0.1 µM; reference: untreated).
With `CC(C)=CC1OC(C)(C)C2C=C3C(=O)C(Cl)=CC(O)C3C3C(O)C4OC4C(=O)C132` (stereo not drawn) the remaining binding was 86% (EPHA5; cell-free assay, competition with immobilised ligand; 10 µM).
For `CCOC(=O)N1CCN(c2ccccc2C=NOCc2ccc(-c3nc4cc(-c5ccccc5)ccn4c3Nc3ccc(C(=O)O)cc3)cc2)CC1` (mixture of isomers), the inhibition was 11.7% (TDP1; enzyme activity, inhibitor; 100 µM, unpurified compound).
With `C=CC(=O)Nc1cccc(-c2cnc3[nH]cc(C(=O)NC(C)(C)C)c3n2)c1` the inhibition was 0% (EPHA5; enzyme activity, inhibitor; 0.1 µM).
For `O=C(Nc1ccc(Oc2ncnc3[nH]cc(-c4ccccc4)c23)c(F)c1)c1c2n(n(-c3cc(F)ccc3F)c1=O)CCCC2`, the inhibition was 7% (EPHA5; enzyme activity, inhibitor; 0.5 µM).
`Cc1cnc2nc1Nc1cccc(c1)COC/C=C/COCc1cc(ccc1OCCN1CCOCC1)N2`: “percent of control” 100% (EPHA5; concentration not given).
The remaining activity of `O=C(O)CCC(=O)c1cccc(NS(=O)(=O)c2c[nH]c3ncccc23)c1` is reported as 99% (EPHA5; kinase activity, radiometric; 10 µM).
`CNC(=O)C1CCN(c2cc(C)c(F)cc2NC(=O)c2ccc(-c3cc(O)ccc3C)c(C)c2)CC1` gave a remaining binding of 3.2% (EPHA5; binding, competition with immobilised ligand; 1 µM).
For `CCN1CCN(Cc2ccc(C(=O)Nc3ccc(C)c(NCc4cnc5[nH]ccc5c4OC)c3)cc2C(F)(F)F)CC1`, the remaining binding was 9.8% (EPHA5; binding, competition with immobilised ligand; 1 µM).
With `CN1CC[C@@H](COc2cnc(C#N)cc2-c2ccn3nc(NC(=O)C4CC4)cc3c2)C1` the inhibition was 10% (EPHA5; enzyme activity, inhibitor; 1 µM).
